Measurements collected from several papers.
Every numbered part comes from another study and shows a few of its results, in no order. Substitutions count along the parent as printed.

Set 1
Target: ABI1, truncated, D143A, DHFR fusion (Arabidopsis thaliana, UniProt P49597)
Method: DHFR PCA, dose-response
Sample: yeast
Notes: Hill fit, mean, not affinity
Together with: (+)-ABA, dose series
Reading: lower = more sensitive
Measurement: ABA EC50
Starting sequence: PYL1, truncated, DHFR fusion (Arabidopsis thaliana, UniProt Q8VZS8); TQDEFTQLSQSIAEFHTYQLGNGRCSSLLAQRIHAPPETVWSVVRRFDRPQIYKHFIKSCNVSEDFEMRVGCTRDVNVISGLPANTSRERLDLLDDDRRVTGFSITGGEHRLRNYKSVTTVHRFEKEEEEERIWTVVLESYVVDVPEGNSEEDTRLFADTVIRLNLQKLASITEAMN
T1Y: 3.7 µM
C25P: 329 µM
S63L: 6.23 µM
R69W: 53.4 µM
I133T: 1.47 µM
N61G: 6.86 µM
D95T: 708 µM
Y53T: 146 µM

Set 2
Target: CCNE1, cyclin fold, Cln2 fusion (human)
Method: yeast growth competition, sequencing
Sample: yeast
Notes: strong parent motif
Baseline: not given
Reading: higher = stronger binding
Measurement: normalised enrichment score
Starting sequence: CDKN1A docking peptide (human); SKACRRLFGPVDS
A3W: 1.75
G9R: 2.91
D12A: 4.06
D12E: 5.29
C4Q: 1.89
L7N: 0.148
F8C: 0.302
V11E: 6.7
R5Y: 0.167
V11D: 7.11
P10D: 6.26
K2L: 3.51
A3G: 2.72
K2Q: 4.87
R5C: 0.571
C4M: 1.76

Set 3
Target: Interferon regulatory factor 3, full length, phosphomimetic (IRF3, Homo sapiens, UniProt Q14653, residues 1-427, S386D/S396D/S398D/S402D/T404D/S405D)
Method: protein-binding microarray
Molecule type: double-stranded DNA, one strand shown
Sample: in vitro
Concentration: 2540 nM top
Notes: 60-bp whole probe
Together with: salmon DNA 0.4 mg/ml
Baseline: random background probes
Reading: higher = stronger binding
Measurement: fitted relative affinity
Constant ends, left off below: GCCTAGCAC … GTCTTGATTCGCTTGACGCTGCTG
Construct (chain): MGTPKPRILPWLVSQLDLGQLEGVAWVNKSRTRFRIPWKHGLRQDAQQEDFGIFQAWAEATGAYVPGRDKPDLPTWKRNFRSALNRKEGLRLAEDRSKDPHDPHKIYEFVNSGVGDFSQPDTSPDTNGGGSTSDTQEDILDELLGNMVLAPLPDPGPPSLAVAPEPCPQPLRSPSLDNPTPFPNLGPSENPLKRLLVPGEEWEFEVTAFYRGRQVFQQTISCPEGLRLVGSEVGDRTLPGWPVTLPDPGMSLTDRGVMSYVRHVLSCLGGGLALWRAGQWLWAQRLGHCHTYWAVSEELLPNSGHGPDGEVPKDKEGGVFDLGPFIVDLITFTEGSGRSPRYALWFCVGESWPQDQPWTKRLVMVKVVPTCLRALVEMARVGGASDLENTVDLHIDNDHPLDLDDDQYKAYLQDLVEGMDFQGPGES
TTAGGTCTCCTTTTTCTTTAGTGCTAG: 4.7 z-score
GACCAACTGAGACTGGAGACGTGCTAG: -0.125 z-score
TTAGATTTCACACTGGATTAGTGCTAG: 0.785 z-score
TTAGGTTTCCTTTCCCTATAGTGCTAG: 10.8 z-score
CTGCATTTTTTTTTTCTACTGTGCTAG: 0.683 z-score
GACGGTTTCTGGTTTCGGGACGTGCTA: 4.25 z-score
TCACCTATAGGGCCTGACACTGTGCTA: 0.0865 z-score
GACGGTATCCTTCTCCTGTCGTGCTAG: 7.86 z-score
TTAGGAATCCTTCTCCTTTAGTGCTAG: 3.82 z-score

Set 4
Target: Histone acetyltransferase KAT6A, both winged helices, GST fusion (KAT6A, Homo sapiens, UniProt Q92794, residues 1-181)
Method: protein binding microarray
Molecule type: double-stranded DNA, one strand shown
Sample: in vitro
Concentration: not given
Notes: 8-mer, flanks averaged, mean of 2 arrays, mostly near background
Baseline: not given
Reading: higher = stronger binding
Measurement: E-score
Residues (chain): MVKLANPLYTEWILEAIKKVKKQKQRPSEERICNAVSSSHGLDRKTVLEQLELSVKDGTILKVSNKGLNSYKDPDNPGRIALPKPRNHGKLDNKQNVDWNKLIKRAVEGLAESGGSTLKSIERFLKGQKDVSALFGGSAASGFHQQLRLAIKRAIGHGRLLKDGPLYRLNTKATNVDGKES
GACGGCCC: 0.266
ATAGGAGA: -0.205
GGACCTCC: 0.0626
AGGGGGCA: -0.193
GCCTGGTA: -0.172
GGGACACC: 0.0784
GATGCGGA: 0.206
CAGGATAG: -0.0558
